Results pooled from the literature.
Every numbered part comes from another study and shows a few of its results, in no order.

Set 1 — method: RNA Bind-n-Seq; form: RNA; matrix: in vitro; tested at: 365 nM; reference: no-protein control; reading: higher = stronger binding; quantity: RBNS enrichment (R)
Target: RNA binding protein fox-1 homolog 2, RRM domain, GST-SBP tag (RBFOX2, Homo sapiens, UniProt O43251-10, residues 100-194)
Notes: natural RNA segment, single round, ends assumed
Target sequence (chain): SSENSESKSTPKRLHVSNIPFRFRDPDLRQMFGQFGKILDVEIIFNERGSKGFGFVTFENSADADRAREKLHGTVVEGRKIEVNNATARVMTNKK
Oligonucleotide = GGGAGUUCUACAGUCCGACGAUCGGUACUUUCUCUGUCCUCUCAACUGAGGACAGUGACUAGUUAAUCUUGACAUAAUUGCAUUUGGCUUGUCAUGUGCCUGGCAUUAAAAACAAUAUUGAGUUCACAUAAUAUGGAAUUCUCGGGUGCCAA; result = 1.1
Oligonucleotide = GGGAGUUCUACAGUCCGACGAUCUGACUUUGCAUAUAGGGCUCCCAUGCACCCACCGUUCCUCUGUUUUGAAACUCUAAUUGCAAUAACUUCAGUCUUUCUCCAUCUUCAGCUGUAUCCACAAAAUCUCCACUUGGAAUUCUCGGGUGCCAA; result = 1.66
Oligonucleotide = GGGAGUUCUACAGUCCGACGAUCAAUUUUUGGACCACAAACCACCCUGCAGCUUCUUAAACCUUUCCCCAACCUACCACCCAAAAGAACCUUUUGGCCAGUUGUUAAAAGGACAGGAAUGAUUUUAUUCUGUAUGGAAUUCUCGGGUGCCAA; result = 0.319
Oligonucleotide = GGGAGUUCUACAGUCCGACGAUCCUCUAGCCCCGCUCUCUUCCCCUCUUUCUGUCCCCCAUUUUCCAGGGGGUAUAUGGUCAGGGCUCCCCAACCUGAGUUGGGUUACUUCAAGGGCAGCCAGCAGGCCUGGAUGGAAUUCUCGGGUGCCAA; result = 0.365
Oligonucleotide = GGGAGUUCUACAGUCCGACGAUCCAGUGAGUGUAGAGUGAAAGUCCUCCAUGUAGUAUUUUCCUGCCCCAGACCAGUCUUAUAGUAAAUAAGCAGAGUUCUGUGUCAGCUCAUGGCUGAUCUCUCCUCAAAGAUGGAAUUCUCGGGUGCCAA; result = 0.377
Oligonucleotide = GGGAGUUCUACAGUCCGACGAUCAAAAAGCUUUGUAGGACACUUGUACUUAGUUUGGGAAAAAAAAAUAAAUUGAAAUUGUUAUGCUUUUGUAUUUCCAUUUCUUGCAAAUAAAUAUUUUUUCUUAAAUAGUAUGGAAUUCUCGGGUGCCAA; result = 0.67
Oligonucleotide = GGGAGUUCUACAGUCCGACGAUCUGUCCCCGCCCCAGCCGUCCUCCUGGGGUGGACCCUAGUUUAAUAAAGAUUCACCAAGUUUCACGCAUCUGCUGGCCUCCCCCUGUGAUUUCCUCUAAGCCCCAGCCUCAUGGAAUUCUCGGGUGCCAA; result = 1.7
Oligonucleotide = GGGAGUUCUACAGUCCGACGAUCGGUGACUCUGUGUGAACUGGCCUUUGGGAAAGAUCAGAGAGGGCAGAGGUGGCACAGGACAGUAAAGGAGAUGCUGUGCUGGCCUUCAGCCUGGACAGGGUCUCUGCUGAUGGAAUUCUCGGGUGCCAA; result = 0.448
Oligonucleotide = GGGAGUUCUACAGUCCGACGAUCGAUGAGUGACUUUAUUGAUUUGAGCAGCAUAUGCUGUGAUUGGCUGCCCUGCAAAUUUGUUUCCCUUAAGGAACCCUCACCAACUAUCUCUGCUGGAUUUGGGAGUUCCGUGGAAUUCUCGGGUGCCAA; result = 0.425

Set 2 — method: protein-binding microarray; form: double-stranded DNA, one strand shown; matrix: in vitro; tested at: 250 nM; notes: 60-bp whole probe; together with: salmon DNA 0.4 mg/ml; reference: random background probes; reading: higher = stronger binding; quantity: log fluorescence; constant ends, left off below: GCCTAGCAC … GTCTTGATTCGCTTGACGCTGCTG
Target: Interferon regulatory factor 7, full length, phosphomimetic (IRF7, Homo sapiens, UniProt Q92985, residues 1-503, S101K/S471D/S472D/S475D/S476D/S477D/S483D/S484D/S487D)
Residues (chain): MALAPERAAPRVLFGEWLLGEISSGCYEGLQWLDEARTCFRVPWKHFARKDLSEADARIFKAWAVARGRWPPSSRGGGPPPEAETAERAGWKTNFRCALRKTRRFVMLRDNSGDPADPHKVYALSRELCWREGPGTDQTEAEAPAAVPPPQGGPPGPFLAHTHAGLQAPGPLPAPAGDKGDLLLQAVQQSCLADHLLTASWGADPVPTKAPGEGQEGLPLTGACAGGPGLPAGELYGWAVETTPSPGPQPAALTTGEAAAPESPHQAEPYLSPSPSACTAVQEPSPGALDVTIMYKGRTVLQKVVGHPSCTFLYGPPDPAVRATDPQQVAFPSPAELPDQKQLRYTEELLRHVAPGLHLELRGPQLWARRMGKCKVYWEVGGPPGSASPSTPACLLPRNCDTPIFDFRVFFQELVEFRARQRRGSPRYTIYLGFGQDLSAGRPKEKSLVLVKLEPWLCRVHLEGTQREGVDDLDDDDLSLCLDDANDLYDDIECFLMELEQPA
Oligonucleotide = TCAGCTTTATGTGTAGGACTGTGCTAG; result = -0.328 z-score
Oligonucleotide = TCAATTTTCAGAATTTAACTGTGCTAG; result = 0.25 z-score
Oligonucleotide = TCATCTTTCGTTACTTCACTGTGCTAG; result = 1.42 z-score
Oligonucleotide = GACGGCATCGGTTTCGGGACGTGCTAG; result = 3.17 z-score
Oligonucleotide = TTAGGACTGCATTTCCTTTAGTGCTAG; result = 0.551 z-score
Oligonucleotide = GAGACTCTAATATTGAGACTGTGCTAG; result = 0.162 z-score
Oligonucleotide = TCAGCTTTGCCTTTTGCACTGTGCTAG; result = -0.589 z-score
Oligonucleotide = TTGTTTTTTTCTATATGCAAGTGCTAG; result = 2.35 z-score
Oligonucleotide = GGCCCTATAGGTTTCTATATGTGCTAG; result = 1.81 z-score
Oligonucleotide = TTAGGATTCGGGTATCGGTTAGTGCTA; result = 2.24 z-score
Oligonucleotide = GACGTTCTCAGTTTCGAGACGTGCTAG; result = 4.17 z-score
Oligonucleotide = GACGATATCAGTATCGAAACGTGCTAG; result = 0.644 z-score
Oligonucleotide = TTAGGTTTCCTACTGCTTAAGTGCTAG; result = 1.22 z-score
Oligonucleotide = TTAGATCTCAGACTGGAGTAGTGCTAG; result = -0.0806 z-score
Oligonucleotide = GAGGATATCGGGTATCGAGACGTGCTA; result = -0.542 z-score
Oligonucleotide = CTCAAAGTCTTTTATGGTATTGTGCTA; result = 0.181 z-score
Oligonucleotide = TTAGAACTGGGGTATTGATTAGTGCTA; result = -0.447 z-score
Oligonucleotide = GACGTTCTCAGACTGGAGACGTGCTAG; result = 0.178 z-score
Oligonucleotide = TTAGAACTGATTCTCGATTAGTGCTAG; result = 0.833 z-score
Oligonucleotide = TTGTGTTTGGGCATTTTTCTAGTGCTA; result = -0.771 z-score
Oligonucleotide = TTAGGACTGGATTATCGGTTAGTGCTA; result = 0.456 z-score
Oligonucleotide = TCAGGTATTTTTCTAAAACTGTGCTAG; result = 0.162 z-score
Oligonucleotide = TGAGGACTGGGGACTGGGTTAGTGCTA; result = -0.64 z-score

Set 3 — method: universal PBM; form: double-stranded DNA, one strand shown; matrix: in vitro; tested at: not given; reading: higher = stronger binding; quantity: E-score
Target: Sal-like protein 4, full length isoform B (SALL4, Homo sapiens, UniProt Q9UJQ4-2, residues 1-616)
Notes: 8-mer, flanks averaged, mean of replicates
Residues (chain): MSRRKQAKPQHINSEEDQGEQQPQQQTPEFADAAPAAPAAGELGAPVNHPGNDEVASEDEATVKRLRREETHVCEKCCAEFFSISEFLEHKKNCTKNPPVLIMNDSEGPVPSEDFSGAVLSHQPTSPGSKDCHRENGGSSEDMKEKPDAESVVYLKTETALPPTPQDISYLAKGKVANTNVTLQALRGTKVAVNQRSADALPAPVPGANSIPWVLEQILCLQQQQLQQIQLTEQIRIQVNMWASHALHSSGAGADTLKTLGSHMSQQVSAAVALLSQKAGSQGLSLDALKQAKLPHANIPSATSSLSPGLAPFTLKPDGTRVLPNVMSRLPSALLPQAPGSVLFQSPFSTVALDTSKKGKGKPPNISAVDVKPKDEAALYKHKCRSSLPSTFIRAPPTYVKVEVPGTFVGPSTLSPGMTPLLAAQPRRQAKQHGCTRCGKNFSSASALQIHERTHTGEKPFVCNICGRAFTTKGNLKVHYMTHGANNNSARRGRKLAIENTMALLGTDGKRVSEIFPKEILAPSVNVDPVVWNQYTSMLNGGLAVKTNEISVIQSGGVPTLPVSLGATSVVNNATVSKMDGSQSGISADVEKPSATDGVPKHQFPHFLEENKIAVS
Oligonucleotide = GATGAGAA; result = 0.00947
Oligonucleotide = AATGGGTA; result = 0.187
Oligonucleotide = ACCATGGC; result = -0.0453
Oligonucleotide = GTAGTTAA; result = 0.105
Oligonucleotide = CCTTCACC; result = -0.147
Oligonucleotide = CGCAAGCG; result = -0.193
Oligonucleotide = GGTCGTCA; result = 0.0114
Oligonucleotide = AGGGCAAT; result = -0.067
Oligonucleotide = ATTTGATG; result = 0.206
Oligonucleotide = AAAACGTG; result = 0.152
Oligonucleotide = CTTGCTTA; result = 0.0192
Oligonucleotide = ATTTACTG; result = 0.242
Oligonucleotide = CAGGGGCC; result = -0.376
Oligonucleotide = CCGTGTGC; result = -0.285
Oligonucleotide = TCCCGCGA; result = -0.0572
Oligonucleotide = AACGACCT; result = -0.125
Oligonucleotide = AAAAATGG; result = 0.259
Oligonucleotide = CGGCCGTA; result = -0.159

Set 4 — method: competition protein-binding microarray; form: double-stranded DNA, one strand shown; matrix: in vitro; tested at: 2 µM; together with: Pho4 competitor, 0.05 µM; reading: higher = stronger binding; quantity: fluorescence intensity
Target: Centromere-binding protein 1, full length, His-tagged (CBF1, Saccharomyces cerevisiae, UniProt P17106, residues 1-351)
UniProt P17106, sequence (whole entry, looked up): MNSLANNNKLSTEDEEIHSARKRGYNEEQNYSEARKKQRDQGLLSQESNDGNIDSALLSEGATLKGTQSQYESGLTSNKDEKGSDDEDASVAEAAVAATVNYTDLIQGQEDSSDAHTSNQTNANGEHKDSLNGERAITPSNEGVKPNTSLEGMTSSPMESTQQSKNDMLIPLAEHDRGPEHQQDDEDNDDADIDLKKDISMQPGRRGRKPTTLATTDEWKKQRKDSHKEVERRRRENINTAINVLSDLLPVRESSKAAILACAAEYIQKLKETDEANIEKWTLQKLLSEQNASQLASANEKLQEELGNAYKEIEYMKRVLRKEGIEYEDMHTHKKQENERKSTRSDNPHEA
Notes: whole 60-bp probe, lowest competitor level
Oligonucleotide = CTTCTCTTTCCCTGGCACGTGCAATTTTACCTCTGAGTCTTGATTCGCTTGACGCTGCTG; result = 3320 a.u.
Oligonucleotide = CTGGTAGCCCTATCGCACGTGCCGATCTGATCAAGGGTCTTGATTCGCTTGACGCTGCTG; result = 1560 a.u.
Oligonucleotide = TAGGACCAATTTGGCAATGTGACTCGCGGAATATGGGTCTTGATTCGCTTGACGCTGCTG; result = 151 a.u.
Oligonucleotide = GCTACGCATTCCCTTCGCGTGAGACCATCAAATCTCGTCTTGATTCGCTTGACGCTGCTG; result = 74.4 a.u.
Oligonucleotide = AGCTTTGAAAACTCCCATGTGGCGCGCCCGTCTTAAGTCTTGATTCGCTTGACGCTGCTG; result = 70.9 a.u.
Oligonucleotide = GCGGTGTCAAACGGTCTGGTGTGCCATCTAGAAGTTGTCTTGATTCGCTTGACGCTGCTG; result = 59.4 a.u.
Oligonucleotide = CGGGGTTAAGTTTGAACAGTGGGTGGCTTGCAGCAGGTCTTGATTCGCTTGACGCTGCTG; result = 75.7 a.u.
Oligonucleotide = CATACCCAACCTTGTAAAGTGGGTGAAGATATTTGTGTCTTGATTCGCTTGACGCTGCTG; result = 84.2 a.u.
Oligonucleotide = TTATGATACAGTTCTCCCGTGGTTACCAGCTTGGCAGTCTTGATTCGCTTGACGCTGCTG; result = 86.1 a.u.
Oligonucleotide = TGCAAACCTGCAATACTCGTGATGGATATTTAATTAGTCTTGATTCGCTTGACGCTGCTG; result = 470 a.u.
Oligonucleotide = AACAGTGGTTCCTGTTCCGTGACGGGTGCTACAACTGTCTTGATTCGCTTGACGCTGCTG; result = 64.9 a.u.
Oligonucleotide = AAATTACTAAGTTGCGTTGTGGGTGACGCCGTATGAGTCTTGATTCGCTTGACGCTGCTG; result = 70.9 a.u.
Oligonucleotide = CGTCCTAGTGATTGTCACACCACTTCCATGAGGAAGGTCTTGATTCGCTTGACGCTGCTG; result = 130 a.u.
Oligonucleotide = CATACCCAACCTTGCTTGGTGGGTGAAGATATTTGTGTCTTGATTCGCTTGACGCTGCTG; result = 67 a.u.
Oligonucleotide = ACTTTGGAAACTGTTTCCGTGATGGTTTCAGTGCCAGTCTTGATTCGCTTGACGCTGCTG; result = 71.5 a.u.
Oligonucleotide = CGGGGTTAAGTTTGAGTAGTGGGTGGCTTGCAGCAGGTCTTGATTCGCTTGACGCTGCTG; result = 71.2 a.u.
Oligonucleotide = TTAGCGTCAAGTACAAATGTGACGAAAATTTGAGGTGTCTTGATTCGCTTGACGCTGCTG; result = 110 a.u.
Oligonucleotide = CGTCCTAGTGATTGCTCAGTGGGTGCCATGAGGAAGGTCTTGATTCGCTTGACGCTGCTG; result = 78.3 a.u.

A few entries again (set 2):
Oligonucleotide = TTAGAACTGGGGTATTGATTAGTGCTA; result = -0.447 z-score
Oligonucleotide = GACGTTCTCAGACTGGAGACGTGCTAG; result = 0.178 z-score
Oligonucleotide = TTAGAACTGATTCTCGATTAGTGCTAG; result = 0.833 z-score
Oligonucleotide = TTGTGTTTGGGCATTTTTCTAGTGCTA; result = -0.771 z-score
Oligonucleotide = TTAGGACTGGATTATCGGTTAGTGCTA; result = 0.456 z-score
